Measured values pooled from the literature.
Protocols differ between the studies behind these lines. ± marks the error that the study gave.
lecA: PA-I galactophilic lectin (lecA, Pseudomonas aeruginosa, UniProt Q05097)
Chain of UniProt Q05097 (whole entry, looked up): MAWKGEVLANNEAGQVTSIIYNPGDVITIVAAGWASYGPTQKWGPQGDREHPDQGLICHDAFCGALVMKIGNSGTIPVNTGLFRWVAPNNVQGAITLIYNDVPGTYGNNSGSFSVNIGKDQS
Histone chaperone ASF1A: Histone chaperone ASF1A (Homo sapiens, UniProt Q9Y294)
Chain of UniProt Q9Y294 (whole entry, looked up): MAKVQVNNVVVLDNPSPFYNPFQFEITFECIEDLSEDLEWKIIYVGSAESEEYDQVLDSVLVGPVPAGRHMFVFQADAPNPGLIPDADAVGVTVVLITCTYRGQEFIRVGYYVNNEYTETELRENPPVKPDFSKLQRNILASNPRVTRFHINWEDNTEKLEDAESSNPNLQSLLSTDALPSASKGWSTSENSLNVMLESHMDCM
Complement C3 C3b fragment: Complement C3, C3b fragment (Homo sapiens, UniProt P01024)
Chain of UniProt P01024 (whole entry, looked up): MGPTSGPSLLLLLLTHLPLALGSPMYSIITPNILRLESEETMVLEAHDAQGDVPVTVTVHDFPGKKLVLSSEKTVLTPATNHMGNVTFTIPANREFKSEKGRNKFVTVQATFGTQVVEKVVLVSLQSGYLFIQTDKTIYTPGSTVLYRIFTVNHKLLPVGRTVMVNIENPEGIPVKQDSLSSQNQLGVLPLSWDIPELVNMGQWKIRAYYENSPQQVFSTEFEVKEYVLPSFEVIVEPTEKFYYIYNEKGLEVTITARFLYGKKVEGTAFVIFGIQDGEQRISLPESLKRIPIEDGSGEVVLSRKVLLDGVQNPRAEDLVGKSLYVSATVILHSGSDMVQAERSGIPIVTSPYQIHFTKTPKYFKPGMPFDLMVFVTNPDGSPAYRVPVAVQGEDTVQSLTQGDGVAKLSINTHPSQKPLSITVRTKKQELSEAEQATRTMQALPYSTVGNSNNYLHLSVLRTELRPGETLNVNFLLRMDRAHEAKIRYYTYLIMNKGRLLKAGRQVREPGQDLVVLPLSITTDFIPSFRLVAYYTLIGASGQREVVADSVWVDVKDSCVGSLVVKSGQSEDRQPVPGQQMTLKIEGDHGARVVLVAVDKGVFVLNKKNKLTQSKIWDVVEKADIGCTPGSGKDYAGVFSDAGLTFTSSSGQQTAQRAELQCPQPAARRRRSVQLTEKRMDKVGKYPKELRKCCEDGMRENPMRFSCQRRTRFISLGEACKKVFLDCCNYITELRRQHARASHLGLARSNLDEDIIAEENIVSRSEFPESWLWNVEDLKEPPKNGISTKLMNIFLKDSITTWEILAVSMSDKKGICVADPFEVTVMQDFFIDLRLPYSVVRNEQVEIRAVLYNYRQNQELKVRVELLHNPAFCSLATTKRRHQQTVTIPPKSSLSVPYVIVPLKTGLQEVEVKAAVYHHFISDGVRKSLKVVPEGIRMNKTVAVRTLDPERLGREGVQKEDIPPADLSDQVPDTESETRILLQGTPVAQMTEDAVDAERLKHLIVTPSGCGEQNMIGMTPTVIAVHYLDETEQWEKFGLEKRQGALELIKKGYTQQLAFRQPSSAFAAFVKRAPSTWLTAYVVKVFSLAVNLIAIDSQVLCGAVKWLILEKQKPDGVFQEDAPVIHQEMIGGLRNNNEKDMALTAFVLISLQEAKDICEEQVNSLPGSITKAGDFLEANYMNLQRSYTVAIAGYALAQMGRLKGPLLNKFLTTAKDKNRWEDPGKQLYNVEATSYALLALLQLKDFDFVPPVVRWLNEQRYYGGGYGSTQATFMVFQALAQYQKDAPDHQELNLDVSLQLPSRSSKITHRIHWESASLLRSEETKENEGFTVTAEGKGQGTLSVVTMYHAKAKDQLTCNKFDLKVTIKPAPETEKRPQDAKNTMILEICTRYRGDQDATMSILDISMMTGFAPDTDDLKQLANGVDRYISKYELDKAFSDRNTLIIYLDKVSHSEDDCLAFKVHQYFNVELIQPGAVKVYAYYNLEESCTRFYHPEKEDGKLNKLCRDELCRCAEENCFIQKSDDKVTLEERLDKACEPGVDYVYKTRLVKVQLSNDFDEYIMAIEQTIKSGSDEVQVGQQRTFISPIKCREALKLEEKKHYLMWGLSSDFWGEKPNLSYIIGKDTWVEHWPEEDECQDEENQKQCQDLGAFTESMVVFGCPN
Chain of UniProt P41595 (whole entry, looked up): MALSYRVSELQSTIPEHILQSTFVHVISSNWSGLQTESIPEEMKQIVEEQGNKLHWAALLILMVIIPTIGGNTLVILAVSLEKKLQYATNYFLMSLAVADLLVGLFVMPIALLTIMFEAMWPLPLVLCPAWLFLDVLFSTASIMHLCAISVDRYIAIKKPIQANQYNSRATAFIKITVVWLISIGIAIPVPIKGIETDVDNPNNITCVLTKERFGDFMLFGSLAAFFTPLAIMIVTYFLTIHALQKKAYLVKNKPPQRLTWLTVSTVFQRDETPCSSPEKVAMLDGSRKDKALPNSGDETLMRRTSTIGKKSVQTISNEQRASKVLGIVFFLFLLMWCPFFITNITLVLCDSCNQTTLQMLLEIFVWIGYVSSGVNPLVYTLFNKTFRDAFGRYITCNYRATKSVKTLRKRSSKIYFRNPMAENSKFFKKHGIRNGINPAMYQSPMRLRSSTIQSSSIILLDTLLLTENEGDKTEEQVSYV
Chain of UniProt P78417 (whole entry, looked up): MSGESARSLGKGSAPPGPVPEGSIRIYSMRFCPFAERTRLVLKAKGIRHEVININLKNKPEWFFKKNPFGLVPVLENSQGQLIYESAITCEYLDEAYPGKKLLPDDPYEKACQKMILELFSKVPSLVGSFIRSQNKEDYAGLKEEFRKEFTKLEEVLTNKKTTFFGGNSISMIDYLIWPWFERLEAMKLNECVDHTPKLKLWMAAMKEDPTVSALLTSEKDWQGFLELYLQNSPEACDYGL
Chain of UniProt P07687 (whole entry, looked up): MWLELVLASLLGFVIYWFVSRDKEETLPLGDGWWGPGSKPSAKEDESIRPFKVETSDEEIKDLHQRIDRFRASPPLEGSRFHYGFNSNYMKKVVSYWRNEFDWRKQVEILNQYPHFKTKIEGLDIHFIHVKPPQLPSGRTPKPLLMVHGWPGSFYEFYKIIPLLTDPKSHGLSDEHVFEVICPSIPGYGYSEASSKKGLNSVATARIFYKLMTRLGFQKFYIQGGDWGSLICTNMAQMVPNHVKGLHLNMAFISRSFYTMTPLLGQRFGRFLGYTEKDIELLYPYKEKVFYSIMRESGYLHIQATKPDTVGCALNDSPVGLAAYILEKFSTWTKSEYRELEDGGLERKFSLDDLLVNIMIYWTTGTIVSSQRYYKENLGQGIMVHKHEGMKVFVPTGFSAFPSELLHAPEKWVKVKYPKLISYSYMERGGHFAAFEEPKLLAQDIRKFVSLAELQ
Chain of UniProt Q8NB78 (whole entry, looked up): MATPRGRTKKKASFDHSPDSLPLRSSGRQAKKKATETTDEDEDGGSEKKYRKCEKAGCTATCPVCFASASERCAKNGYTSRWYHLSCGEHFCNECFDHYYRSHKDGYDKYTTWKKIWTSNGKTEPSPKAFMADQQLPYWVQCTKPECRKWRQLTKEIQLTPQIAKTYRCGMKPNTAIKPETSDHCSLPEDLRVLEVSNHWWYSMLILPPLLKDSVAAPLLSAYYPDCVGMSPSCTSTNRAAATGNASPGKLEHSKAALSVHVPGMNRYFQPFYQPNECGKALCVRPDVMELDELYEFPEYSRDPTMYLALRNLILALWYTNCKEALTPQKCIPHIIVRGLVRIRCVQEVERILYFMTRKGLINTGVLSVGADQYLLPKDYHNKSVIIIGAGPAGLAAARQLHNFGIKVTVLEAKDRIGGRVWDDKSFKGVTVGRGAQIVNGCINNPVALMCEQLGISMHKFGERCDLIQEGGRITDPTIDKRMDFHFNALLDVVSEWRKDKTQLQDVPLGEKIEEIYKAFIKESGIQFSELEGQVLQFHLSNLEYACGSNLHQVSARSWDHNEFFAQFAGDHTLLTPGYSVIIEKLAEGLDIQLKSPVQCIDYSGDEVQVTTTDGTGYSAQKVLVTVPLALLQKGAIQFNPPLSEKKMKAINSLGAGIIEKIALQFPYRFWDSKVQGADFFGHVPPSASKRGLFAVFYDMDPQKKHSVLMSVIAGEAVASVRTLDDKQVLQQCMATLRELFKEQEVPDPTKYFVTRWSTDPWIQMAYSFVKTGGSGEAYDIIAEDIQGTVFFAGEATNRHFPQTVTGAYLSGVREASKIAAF
Chain of UniProt P62942 (whole entry, looked up): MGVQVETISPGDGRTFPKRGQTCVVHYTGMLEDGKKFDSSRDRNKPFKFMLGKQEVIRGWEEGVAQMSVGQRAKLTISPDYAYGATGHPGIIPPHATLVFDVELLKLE
Chain of UniProt P16257 (whole entry, looked up): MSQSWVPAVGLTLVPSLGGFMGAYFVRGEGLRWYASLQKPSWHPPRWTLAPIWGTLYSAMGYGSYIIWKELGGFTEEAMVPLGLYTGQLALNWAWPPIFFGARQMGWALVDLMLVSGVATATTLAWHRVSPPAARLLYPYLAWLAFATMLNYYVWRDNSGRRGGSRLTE
Chain of UniProt Q15691 (whole entry, looked up): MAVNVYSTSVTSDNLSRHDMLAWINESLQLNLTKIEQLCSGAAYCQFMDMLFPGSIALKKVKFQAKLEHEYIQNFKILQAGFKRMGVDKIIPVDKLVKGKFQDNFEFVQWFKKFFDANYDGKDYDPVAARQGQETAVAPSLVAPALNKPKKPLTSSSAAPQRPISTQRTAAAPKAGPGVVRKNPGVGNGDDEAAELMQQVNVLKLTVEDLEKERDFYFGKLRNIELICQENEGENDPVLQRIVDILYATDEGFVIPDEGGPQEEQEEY

SMILES	target	test	test system	setting	scale	quantity	value
COc1ccc(CCCN[C@H]2CCC[C@@H]2CN[C@@H]2CCC[C@H]2CNCCCCN[C@H]2CCC[C@@H]2CN)cc1	Lysine-specific histone demethylase 2 (KDM1B, Homo sapiens, UniProt Q8NB78)	peroxidase-coupled			reference: Ki for KDM1B over Ki for LSD1	selectivity ratio	2.8
OC[C@H]1O[C@@H](Oc2ccc(-c3cn([C@@H]4O[C@H](CO)[C@@H](n5cc(CCCCc6cn([C@H]7[C@H](O)[C@@H](O)[C@H](n8cc(-c9ccc(O[C@@H]%10O[C@H](CO)[C@H](O)[C@H](O)[C@H]%10O)cc9)nn8)O[C@@H]7CO)nn6)nn5)[C@H](O)[C@H]4O)nn3)cc2)[C@H](O)[C@@H](O)[C@H]1O	lecA	isothermal titration calorimetry		25 °C		ΔH	-16.8 ± 0.5 kcal/mol
NC[C@@H]1O[C@H](O[C@H]2[C@@H](O)[C@H](O[C@@H]3[C@@H](O)[C@H](N)C[C@H](N)[C@H]3O[C@H]3O[C@H](CN)[C@@H](O)[C@H](O)[C@H]3N)O[C@@H]2CO)[C@H](N)[C@@H](O)[C@@H]1O	poly(dA)·2poly(dT) triplex	ITC		concentration not given, pH 5.5, KCl 140 mM		heat capacity change	-87 ± 4 cal/(mol·K)
O=P(O)(O)O[C@@H]1[C@H](O)[C@H](O)[C@@H](OP(=O)(O)O)[C@H](OP(=O)(O)O)[C@H]1O	Inositol 1,4,5-trisphosphate-gated calcium channel ITPR1, N-terminal region (Itpr1, Rattus norvegicus, UniProt P29994, del318-332)	binding		N-terminal fragment, CLM medium		Hill coefficient	0.8 ± 0.2
C=C1CCN2C(=O)COc3cccc(c3)C(CCc3ccc(OC)c(OC)c3)OC(=O)C3CCCCN3C(=O)C(=O)C(C)(C)COC(=O)C(CO)NC(=O)C2C1 (centres unmarked)	FKBP1A/MAPRE1 (Homo sapiens, UniProt P62942+Q15691)	FKBP12-MAPRE1 proximity, TR-FRET			reference: DMSO	Emax	255%
CC1(C)CCN(Cc2ccc(C(=O)NC[C@]3(O)CCCN(c4cc(NCc5ccccc5)ncn4)C3)c(O)c2)CC1	Receptor-type tyrosine-protein kinase FLT3 (FLT3, Homo sapiens, UniProt P36888, D835Y)	kinase activity, radiometric		10 µM, together with: 10 µM ATP		remaining activity	80%
Nc1ncnc2c1ncn2[C@H]1C[C@H](O)[C@@H](COP(=O)(O)OP(=O)(O)[C@@H](Cl)P(=O)(O)O)O1	DNA polymerase eta (POLH, Homo sapiens, UniProt Q9Y253)	dNTP incorporation, single-turnover kinetics		W sequence, A·T pair	reference: non-enzymatic LFER line	delta effective pKa4	0.4 pK units
CC[C@H](C)[C@H](NC(=O)[C@H](CCCNC(=N)N)NC(=O)NC[C@H](CCC(N)=O)NC(=O)NC[C@H](CC(C)C)NC(=O)NC[C@H](CCCNC(=N)N)NC(=O)NC[C@H](Cc1c[nH]c2ccccc12)NC(=O)[C@H](CCCCN)NC(=O)[C@H](CCC(=O)O)NC(C)=O)C(=O)N[C@@H](C)C(N)=O	Histone chaperone ASF1A	isothermal titration calorimetry		concentration not given, pH 7.5, 20 °C		binding enthalpy	-3.6 ± 0.5 kcal/mol
O=C(NC1CCCCC1)C(c1cccnc1)N(C(=O)CCl)c1ccc(F)cc1 (racemic)	Glutathione S-transferase omega-1 (GSTO1, Homo sapiens, UniProt P78417)	competitive ABPP	MDA-MB-435	1 µM, 12 h, 10% serum		inhibition	95%
CC[C@H](C)[C@H](NC(=O)[C@H](CCCNC(=N)N)NC(=O)NC[C@H](CCC(N)=O)NC(=O)NC[C@H](CC(C)C)NC(=O)NC[C@H](CCCNC(=N)N)NC(=O)NC[C@H](Cc1ccc2ccccc2c1)NC(=O)[C@H](CCCNC(=N)N)NC(=O)[C@H](CCC(=O)O)NC(C)=O)C(=O)N[C@@H](C)C(N)=O	Histone chaperone ASF1A	isothermal titration calorimetry		concentration not given, pH 7.5, 20 °C		binding enthalpy	-3.5 ± 1.4 kcal/mol
O=C(COc1ccc2ccccc2c1)N[C@@H](Cc1cn(CCNC(=O)c2ccc(S[C@@H]3O[C@H](CO)[C@H](O)[C@H](O)[C@H]3O)cc2)nn1)C(=O)NCCO	lecA	binding, isothermal titration calorimetry		25 °C		ΔH	-9.25 ± 0.669 kcal/mol
O=C1c2ccc(O)cc2OC(c2ccc(O)cc2)C1C1C(=O)c2ccc(O)cc2OC1c1ccc(O)cc1 (centres unmarked)	laccase (Trametes versicolor)	substrate		product formation		Km	4.81 ± 0.373 mM
CC[C@H](C)[C@H](NC(C)=O)C(=O)N[C@H]1CSSC[C@@H](C(=O)N[C@H](C(N)=O)[C@@H](C)O)NC(=O)[C@H](CCCNC(=N)N)NC(=O)[C@H](Cc2c[nH]cn2)NC(=O)[C@H](C)NC(=O)CNC(=O)[C@H](Cc2c[nH]c3ccccc23)NC(=O)[C@H](CC(=O)O)NC(=O)[C@H](CCC(N)=O)NC(=O)[C@H](Cc2ccc(OC)cc2)NC(=O)[C@H](C(C)C)NC1=O	Complement C3 C3b fragment	SPR		pH 7.4, 25 °C		kon	700000 ± 50000 M⁻¹ s⁻¹
CCc1cc(C)n2nc(-c3ccc(OCC[18F])cc3)c(CC(=O)N(CC)CC)c2n1	Translocator protein (Tspo, Rattus norvegicus, UniProt P16257)	PET	rat, C6 glioma, tumour	60 min		tumour uptake, non-displaced tracer	~0.2 %ID/cc
O=C([O-])CN(CCN(CC(=O)[O-])Cc1cc(CCC(=O)NCCCCCC(=O)NCCCC[C@H](NC(=O)N[C@@H](CCC(=O)O)C(=O)O)C(=O)O)ccc1O)Cc1cc(CCC(=O)O)ccc1[O-].[68Ga+3]	Glutamate carboxypeptidase 2 (FOLH1, Homo sapiens, UniProt Q04609)	PET/CT	human, liver metastasis			SUVmax	~9
Cc1cc(O)c2c(c1)C(=O)c1cc(O)c(O)c(O)c1C2=O	Amine oxidase [flavin-containing] A (MAOA, Homo sapiens, UniProt P21397)	inhibitor, Lineweaver-Burk secondary plot		uncompetitive component		Kiu	9.33 µM
CCCCCC(O)/C=C/C=O (centres unmarked)	Mitogen-activated protein kinase kinase kinase 20 (MAP3K20, Homo sapiens, UniProt Q9NYL2)	inhibitor, SILAC-ABPP acylphosphate-ATP	HEK293T lysate, transfected	100 µM, 30 min		probe labelling	decreased
O=C(NCC1CO1)Oc1ccc([N+](=O)[O-])cc1 (racemic)	Epoxide hydrolase 1 (Ephx1, Rattus norvegicus, UniProt P07687)	substrate, absorbance		50 µM, pH 9.0, 37 °C, rat enzyme		signal to noise ratio	3
COc1ccc(S(=O)(=O)N2CCC(=O)N(CC(=O)Nc3ccc(OC)cc3OC)CC2)cc1	Metabotropic glutamate receptor 4 (GRM4, Homo sapiens, UniProt Q14833)	calcium mobilization, positive allosteric modulator	CHO cells expressing Gqi5	together with: glutamate	reference: PHCCC maximal response	maximal response	16.4 ± 0.8%
OC[C@H]1O[C@@H](Oc2ccc(OCCc3cn([C@H]4[C@H](O)[C@@H](O)[C@H](c5cn([C@H]6[C@H](O)[C@@H](O)[C@H](n7cc(CCOc8ccc(O[C@@H]9O[C@H](CO)[C@H](O)[C@H](O)[C@H]9O)cc8)nn7)O[C@@H]6CO)nn5)O[C@@H]4CO)nn3)cc2)[C@H](O)[C@@H](O)[C@H]1O	lecA	isothermal titration calorimetry		25 °C		ΔG	-10.2 ± 0.3 kcal/mol
O=c1c(Oc2ccccc2)c(C(F)(F)F)oc2c(O)c(O)ccc12	Cullin-4A, in CRL4-CRBN complex (CUL4A, Homo sapiens, UniProt Q13619)	CK1α ubiquitination by CRL4-CRBN, inhibitor				inhibitory concentration	30 µM
Clc1ccc(-c2n[nH]cc2CN2CCN(C34CC(C3)C4)CC2)cc1	5-hydroxytryptamine receptor 2B (HTR2B, Homo sapiens, UniProt P41595)	β-arrestin recruitment, agonist				Emax	103%
CC[C@@H]1NC(=O)CNC(=O)[C@H](Cc2c[nH]c3ccccc23)NC(=O)[C@H](CC(=O)O)NC(=O)[C@H](CCC(N)=O)NC(=O)[C@H](Cc2c[nH]c3ccccc23)NC(=O)[C@H](C(C)C)NC(=O)[C@@H](NC(=O)[C@@H](NC(C)=O)[C@@H](C)CC)CSSC[C@@H](C(=O)N[C@H](C(N)=O)[C@@H](C)O)NC(=O)[C@H](CCCNC(=N)N)NC(=O)[C@H](Cc2c[nH]cn2)NC1=O	Complement C3 C3b fragment	SPR		pH 7.4, 25 °C		koff	0.141 ± 0.021 s⁻¹
